Published values gathered from unrelated publications.
Numbered parts are unrelated; each lists some results of a single study.

Series 1 — technique: RNA Bind-n-Seq; form: RNA; medium: in vitro; tested at: 200 nM; setting: whole 134-nt RNA, ends assumed; with: 150 mM LiCl; baseline: input library; reading: higher = stronger binding; measurement: log2 enrichment; library: 7-deaza-guanosine replaces G
Target: Ras GTPase-activating protein-binding protein 1, full length (G3BP1, Homo sapiens, UniProt Q13283)
UniProt Q13283, sequence (whole entry, looked up): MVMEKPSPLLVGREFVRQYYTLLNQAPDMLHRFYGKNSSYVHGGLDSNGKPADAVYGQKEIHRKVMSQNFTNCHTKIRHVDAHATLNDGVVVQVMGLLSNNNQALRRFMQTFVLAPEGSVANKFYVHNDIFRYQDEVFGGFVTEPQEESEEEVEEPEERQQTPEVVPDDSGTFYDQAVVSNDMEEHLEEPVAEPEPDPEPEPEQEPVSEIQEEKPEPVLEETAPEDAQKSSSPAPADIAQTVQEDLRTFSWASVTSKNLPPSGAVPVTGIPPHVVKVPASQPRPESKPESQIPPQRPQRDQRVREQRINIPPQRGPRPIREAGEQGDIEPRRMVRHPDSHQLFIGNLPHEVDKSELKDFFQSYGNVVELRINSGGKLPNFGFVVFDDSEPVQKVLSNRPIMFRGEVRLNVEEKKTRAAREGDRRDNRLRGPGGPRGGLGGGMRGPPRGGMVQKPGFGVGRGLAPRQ
Constant ends, left off below: GGGAGUUCUACAGUCCGACGAUC … UGGAAUUCUCGGGUGUCAAGG
CAAGUCCUGUGCUACACAUCGUAUGUACCGAAUCGGAAAAAGGAAAGGUUUUUGGAAAGUAUUAUGUUACGCCGUUCGGAUCUGCACUUC: -0.969
UGGCCCUUGUGGCAUGCGGGGAGGAAGAGGUGGCCUCAUGGAUCGUGGUGGUCCCGGUGGAAUGUUCAGAGGUGGCCGUGGUGGAGACAG: 0.331
CUCAAGUCCUGUGCUACACAUCGUAUGUACCGAAUCGGUUGGUUGGGGUUGGGGAAAGUAUUAUGUUACGCCGUUCGGAUCUGCACUUCC: -0.694
AGUCCUGUGCUACACAUCGUAUGUACCGAAUCGGGGUUUUGGGUUUUGGGUUUUGGGAAAGUAUUAUGUUACGCCGUUCGGAUCUGCACU: -0.523
UGUGCUACACAUCGUAUGUACCGAAUCGGGGAAAAAAAGGGGAAAAAAAGGAAAAAAAGGGGAAAGUAUUAUGUUACGCCGUUCGGAUCU: 0.383
UCAAGUCCUGUGCUACACAUCGUAUGUACCGAAUCGGGUUGGGUUGGGGUUGGGAAAGUAUUAUGUUACGCCGUUCGGAUCUGCACUUCC: -0.104
UGCGCCAACCUAGGCUUUCUUCUUCCUCUCCUCUUUAUAGGCGGAGUCGAUCUCCCAAAAGGAGAAGGUAGGCCUUCAGUCAUUUGUGAU: -0.388
UGGGAGGUGGAUUUUAUUUAUUUUUUUAGCUCAUUUCCAGGGGUGGGAAUUUUUUUUUAAUAUGUGUCAUGAAUAAAGUUGUUUUUGAAA: -0.247
UUCCGGAAGAAGAAGCUCCGAUUUGGCCGGAGCCGGAUCCACGAGUGGGGUCUGUUUGCCAUGGAACCCAUUGCUGCUGACGAGAUGGUC: -0.642
GUCCUGUGCUACACAUCGUAUGUACCGAAUCGGGAAAAAAAGGGUUUUUUUGGGUGGGAAAGUAUUAUGUUACGCCGUUCGGAUCUGCAC: -1.54
CUCAAGUCCUGUGCUACACAUCGUAUGUACCGAAUCGGGGUUGGGUUGGGUUGGAAAGUAUUAUGUUACGCCGUUCGGAUCUGCACUUCC: -0.0324

Series 2 — technique: protein-binding microarray; form: double-stranded DNA, one strand shown; medium: in vitro; tested at: 2540 nM top; setting: 60-bp whole probe; with: salmon DNA 0.4 mg/ml; baseline: random background probes; reading: higher = stronger binding; measurement: fitted relative affinity; constant ends, left off below: GCCTAGCAC … GTCTTGATTCGCTTGACGCTGCTG
Target: Interferon regulatory factor 3, full length, phosphomimetic (IRF3, Homo sapiens, UniProt Q14653, residues 1-427, S386D/S396D/S398D/S402D/T404D/S405D)
Residues (chain): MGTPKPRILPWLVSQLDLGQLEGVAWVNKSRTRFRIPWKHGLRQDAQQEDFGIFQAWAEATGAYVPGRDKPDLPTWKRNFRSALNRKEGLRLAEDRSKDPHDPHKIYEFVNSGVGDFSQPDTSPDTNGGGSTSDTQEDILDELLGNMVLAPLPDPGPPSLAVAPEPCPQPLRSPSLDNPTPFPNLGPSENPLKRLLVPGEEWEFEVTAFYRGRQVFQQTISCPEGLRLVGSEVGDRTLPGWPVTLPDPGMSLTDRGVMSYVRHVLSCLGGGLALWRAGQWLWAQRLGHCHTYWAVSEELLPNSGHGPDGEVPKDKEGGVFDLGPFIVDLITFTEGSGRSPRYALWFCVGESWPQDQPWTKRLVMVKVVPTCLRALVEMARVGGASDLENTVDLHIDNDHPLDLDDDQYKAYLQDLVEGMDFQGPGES
GGGTGAATGTGTCTTAAATAGTGCTAG: -0.262 z-score
TTAGTTATCGACTATCGGTTAGTGCTA: 0.665 z-score
TCATTTTTTCTTTTATTACTGTGCTAG: 2.61 z-score
GACGATATCGGGACCGGAGACGTGCTA: 0.288 z-score
TCAAATTTTGTCATCTAACTGTGCTAG: 0.235 z-score
TTAGGTATCGGTTTCGGGTAGTGCTAG: 6.84 z-score
CTAGATTTCAGACTGGATTAGTGCTAG: 0.565 z-score
TTAGGTATCGGGATTCGGTTAGTGCTA: 1.64 z-score
TCATCTATCTTAAATAGGACTGTGCTA: 1.04 z-score
GACGGTATCGGGACTGGTGACGTGCTA: 1.71 z-score
TTAGCTTCCGGTTTCGGTTAGTGCTAG: 6 z-score
TACGATATCGGGTATCGAGACGTGCTA: 0.00471 z-score
TCTCCTCCCCCTCTGCCACCGTGCTAG: 0.663 z-score
TTAGAACTGGGGTATCGAGTAGTGCTA: -0.864 z-score
TTAGGTTTCGGGTATCGGTTCGTGCTA: 5.14 z-score
TTAGGTTTCGACTAACGGTTAGTGCTA: 2.03 z-score
TTAGGTATCCTACTGCTTTGGTGCTAG: 2.31 z-score
GCACTTTGGGAGGCCGAGGCGTGCTAG: -0.14 z-score
GACGGTATCATTTTCCTGACGTGCTAG: 4.51 z-score

Series 3 — technique: universal PBM; form: double-stranded DNA, one strand shown; medium: in vitro; tested at: 600 nM; reading: higher = stronger binding; measurement: E-score
Target: Sal-like protein 4, full length isoform A (SALL4, Homo sapiens, UniProt Q9UJQ4, residues 1-1053)
UniProt Q9UJQ4, sequence (whole entry, looked up): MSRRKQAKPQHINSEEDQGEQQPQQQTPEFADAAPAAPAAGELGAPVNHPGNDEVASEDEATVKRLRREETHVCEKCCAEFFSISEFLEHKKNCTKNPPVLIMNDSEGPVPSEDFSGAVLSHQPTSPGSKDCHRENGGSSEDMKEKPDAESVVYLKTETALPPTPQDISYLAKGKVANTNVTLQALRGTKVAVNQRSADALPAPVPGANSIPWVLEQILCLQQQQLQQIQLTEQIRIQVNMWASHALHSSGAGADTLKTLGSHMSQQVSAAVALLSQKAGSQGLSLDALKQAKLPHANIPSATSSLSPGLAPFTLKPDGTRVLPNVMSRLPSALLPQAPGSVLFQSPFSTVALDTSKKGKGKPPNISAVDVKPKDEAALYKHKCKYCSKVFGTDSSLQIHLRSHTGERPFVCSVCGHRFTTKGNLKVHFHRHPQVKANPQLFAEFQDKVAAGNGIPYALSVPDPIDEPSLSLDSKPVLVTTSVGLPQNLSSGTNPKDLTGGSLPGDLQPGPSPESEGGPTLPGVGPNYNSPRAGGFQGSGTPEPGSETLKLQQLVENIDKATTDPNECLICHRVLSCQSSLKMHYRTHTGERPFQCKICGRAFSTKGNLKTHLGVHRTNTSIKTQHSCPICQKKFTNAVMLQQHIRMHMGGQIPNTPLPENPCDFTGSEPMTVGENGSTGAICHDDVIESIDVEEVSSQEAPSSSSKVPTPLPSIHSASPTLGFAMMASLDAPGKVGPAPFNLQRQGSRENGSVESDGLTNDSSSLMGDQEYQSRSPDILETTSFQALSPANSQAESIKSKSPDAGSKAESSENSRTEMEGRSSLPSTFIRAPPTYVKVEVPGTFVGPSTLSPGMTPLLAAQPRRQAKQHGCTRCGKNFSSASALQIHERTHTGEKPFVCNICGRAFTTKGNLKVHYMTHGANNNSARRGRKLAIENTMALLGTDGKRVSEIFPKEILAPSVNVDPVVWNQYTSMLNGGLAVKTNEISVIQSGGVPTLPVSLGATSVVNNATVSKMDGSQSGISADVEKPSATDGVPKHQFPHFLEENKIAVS
Setting: 8-mer, flanks averaged, mean of replicates
AAGTCAAA: 0.154
AGGTAAGC: -0.137
CCGCAAGA: -0.091
AAGTCTAC: -0.0858
AGATCTGA: -0.0569
AACCACCG: -0.125
ATGCCGAG: -0.136
ATAATTTG: 0.39
CATCTTAC: 0.0775
CTTCCGTA: -0.00887
TGCCAAAA: 0.0862
CAAGACTG: 0.101
AACGCCAT: -0.129
CATGAGGG: -0.0863
CCTTCACG: -0.145
ATAGGCCA: 0.0138
CATAACAC: 0.302
AGACAGAC: -0.0331
TAAATCGA: 0.256
AAACGTCC: -0.0404
ACTCCTGG: -0.301
GTACAATA: 0.325
ACACTTCG: 0.0595
CGATTTAC: 0.0772
AAGGCATG: -0.0335

Series 4 — technique: aptamer microarray, sandwich; form: DNA with 2'F-ANA; medium: in vitro; tested at: 200 nM; with: Cy3 exosite-II aptamer, 400 nM; reading: higher = stronger binding; measurement: mean fluorescence intensity; oligonucleotide: GGTTGGTGTGGTTGG
Target: Prothrombin, mature alpha-thrombin (F2, Homo sapiens, UniProt P00734)
Setting: whole 15-mer aptamer, many near background
2'F-ANA at 1 4 5 6 7 11 13 15: 55.7 a.u.
2'F-ANA at 3 4 5 8 9 12 13 15: 112 a.u.
2'F-ANA at 1 3 4 5 14 15: 47.3 a.u.
2'F-ANA at 3 4 5 9 12 13: 107 a.u.
2'F-ANA at 1 2 10 14 15: 58.2 a.u.
2'F-ANA at 2 3 4 5 9 10 11 12: 66 a.u.
2'F-ANA at 1 4 5 6 7 11 13 14: 45.5 a.u.
2'F-ANA at 1 2 3 7 8 9 11 12 14 15: 93.9 a.u.
2'F-ANA at 2 7 9 10 12: 164 a.u.
2'F-ANA at 4 6 9 10 14: 58.8 a.u.
2'F-ANA at 1 6 8 9 10 13 14 15: 52 a.u.
2'F-ANA at 3 4 6 7 8 9 11 12 13 14: 279 a.u.
2'F-ANA at 3 4 5 7 8 9 11 13 14: 51 a.u.
2'F-ANA at 2 4 6 10 11 12 14 15: 57.5 a.u.
2'F-ANA at 2 3 5 8 9 10 13: 68.1 a.u.
2'F-ANA at 2 3 7 8 13: 880 a.u.
2'F-ANA at 1 2 3 4 5 7 11 13 14 15: 48.9 a.u.

Series 5 — technique: RNA Bind-n-Seq; form: RNA; medium: in vitro; tested at: 365 nM; baseline: no-protein control; reading: higher = stronger binding; measurement: RBNS enrichment (R)
Target: RNA binding protein fox-1 homolog 2, RRM domain, GST-SBP tag (RBFOX2, Homo sapiens, UniProt O43251-10, residues 100-194)
Setting: natural RNA segment, single round, ends assumed
Constant ends, left off below: GGGAGUUCUACAGUCCGACGAUC … UGGAAUUCUCGGGUGCCAA
Target sequence (chain): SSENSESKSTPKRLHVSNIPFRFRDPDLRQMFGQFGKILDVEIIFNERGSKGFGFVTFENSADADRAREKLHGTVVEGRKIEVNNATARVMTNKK
GUUGUAGUGGGUUUUGGAGGAGGGAGUGGAGUAAGAUGCCCUCCCACUUUUAUCAGUUUAGUAGUAGUACUGAGAAAAAUCCCUUCAGCUCUAAGAACACUGAAAAAUCC: 0.324
AGACGACUGUGGUGUGCAGUGGUGCUCUGGGAGUGGAGACUUCCUCUGUUCUCAGAGACUCACCCCCAGCCCUGACCCUAGAAUUUAGGGAUAGCCAGGAAGUUUCUAGU: 0.223
CCAAAGAAUGGGGGUGGGAGCGCCAAGGGGCAGAGACUCUCCUUGACCCUCUCCCUAAGGUUGGAUCAGGGAACUGGGUAAGACCUGCAGAAGGUUUCUCUGAGUCACUC: 0.453
GUGCAAAUGUACUAUAGCAGUUCAUCUUCAUGUUCCAGCCUUACUCUGUGUUAAUACUGCUUCACAAUUCUGAAUGGCUGUGUUCUCUUAAAUAAAUGCAUUCAAAGAAA: 0.951
CUUACCUCCAAUCCAGUUAGAGCAAUAACCACUUUUUAAAUGUAAAAUAAAGACAAAUGAAAAGGCACAUCCUUGUCUUUUGGUAAAUGCCCAAACGUUGCCCUCUUUUU: 0.52
UUUAAGGAGCCUCAAGUGAAAAAAACAAAAACAAAACAAAAAACCCAGGGCCACUGGGGGAAUGUUUUAUGAAAUCAUGUAGAGUGCUGUAGUUUUGAAGUCAUCCGUUU: 0.367
UCUUUGACUAGAAUCACAACCAUCCCAGAGCAUGUAUGACAAGCUUGUGUUUUGGCAGCAUUUUAAGGCAUGGUGGUCCCUCAGGCUUUGAAAACGCCUCUUGCCUAUGU: 1.72
CAGUAGAUACUGGCGUGUGGAGAUUCACAGACGACCUCAGCACCCAUCCCACCAGGUCCCUGGACUCACGGCCUUUCCUUCAUUUGCCAUUCACAUUGCUGCUCACAAAA: 0.37
UAUUUAUGAACCCAUGGGAGACUUUAAACUCUUGUAGAUAGAUGCUAAAUGCCCAGGCCCACUUAACUUAUUAAUGUGUGAAUUACAUUUAUGUUUUUAGUUUAUAUGCA: 3
UGCCACACAGGGCAAUCCAGAUUUAGAUUAAAGAAAGGAUACACAGACAUUAAUCUGCAACAGGUCUUGUUCAUACUCAUAAAGUGUACCGUAUUAAGAAAUCAGAACAG: 0.262
ACAUGCAGUAUAGUAGGUCCCUGACCUUUACUUGCCUGAAAUCAGCAGUUAUCAAUAAUUCCCACCCAGGAAACUUUUAUUUAUUGUUUUUUAAAGAUAAAACUGCACAG: 0.414
GAAGUUGGCUGACACAGCUUAGCUUGGUUUUGCUUAUUCAAAAGAGAAAAUAACUACACAUGGAAAUGAAACUAGCUGAAGCCUUUUCUUGUUUUAGCAACUGAAAAUUG: 0.344

A few entries again (series 4):
2'F-ANA at 2 3 7 8 13: 880 a.u.
2'F-ANA at 1 6 8 9 10 13 14 15: 52 a.u.
2'F-ANA at 2 7 9 10 12: 164 a.u.
2'F-ANA at 2 4 6 10 11 12 14 15: 57.5 a.u.
2'F-ANA at 3 4 5 8 9 12 13 15: 112 a.u.
2'F-ANA at 1 2 3 7 8 9 11 12 14 15: 93.9 a.u.
2'F-ANA at 2 3 4 5 9 10 11 12: 66 a.u.
2'F-ANA at 1 4 5 6 7 11 13 14: 45.5 a.u.
2'F-ANA at 4 6 9 10 14: 58.8 a.u.
2'F-ANA at 3 4 6 7 8 9 11 12 13 14: 279 a.u.
2'F-ANA at 3 4 5 9 12 13: 107 a.u.
